Assay results gathered from unrelated publications.
Each numbered part is a random draw from the data of one study; scales do not carry over between parts. Positions count from the first letter of the parent shown.

Set 1
Target: CCNE2, cyclin fold, Cln2 fusion (human)
Technique: yeast growth competition, sequencing
Medium: yeast
Setting: strong parent motif
Relative to: not given
Reading: higher = stronger binding
Starting sequence: WEE1 docking peptide (human); HKTFRKLRLFDTP
| Variant | normalised enrichment score |
| --- | --- |
| HKTFRKLRLFDTH [P13H] | 0.212 |
| HKTFRKLRLFDTW [P13W] | 0.624 |
| HCTFRKLRLFDTP [K2C] | 0.511 |
| HKTFRKLRLMDTP [F10M] | 0.174 |
| HKTFRKCRLFDTP [L7C] | 1.72 |
| HKTFTKLRLFDTP [R5T] | 1.84 |
| HKTFRKLRLFKTP [D11K] | 0.848 |
| HKTFRKLRRFDTP [L9R] | -0.0572 |
| HKTFRKLRLFPTP [D11P] | 0.968 |
| HKKFRKLRLFDTP [T3K] | 0.317 |
| HKTFRKLKLFDTP [R8K] | 1.44 |
| HKTFRKLRLKDTP [F10K] | 0.152 |
| HKTFRCLRLFDTP [K6C] | 0.675 |
| HKTFPKLRLFDTP [R5P] | 0.0418 |
| HKTFRKLRLFDTM [P13M] | 2.1 |

Set 2
Target: Prothrombin, mature alpha-thrombin (F2, Homo sapiens, UniProt P00734)
Technique: aptamer microarray, sandwich
Form: DNA with 2'F-ANA
Medium: in vitro
Tested at: 200 nM
Setting: whole 15-mer aptamer, many near background
With: Cy3 exosite-II aptamer, 400 nM
Reading: higher = stronger binding
Oligonucleotide: GGTTGGTGTGGTTGG
| Modification | mean fluorescence intensity [a.u.] |
| --- | --- |
| 2'F-ANA at 2 3 4 6 8 11 12 13 15 | 569 |
| 2'F-ANA at 1 2 3 5 6 7 11 13 15 | 74.9 |
| 2'F-ANA at 1 2 3 6 7 9 11 12 14 | 68.1 |
| 2'F-ANA at 3 7 8 12 13 14 | 762 |
| 2'F-ANA at 1 4 5 6 8 9 10 12 14 15 | 50.3 |
| 2'F-ANA at 4 5 6 13 | 51 |
| 2'F-ANA at 1 2 4 6 12 14 15 | 54.1 |
| 2'F-ANA at 2 4 8 10 11 13 | 170 |
| 2'F-ANA at 1 6 10 12 13 14 15 | 53.7 |
| 2'F-ANA at 1 4 7 12 14 15 | 63.7 |
| 2'F-ANA at 1 2 3 8 10 14 15 | 54.1 |
| 2'F-ANA at 1 2 3 4 5 11 13 14 | 46.5 |
| 2'F-ANA at 2 3 5 8 10 13 14 | 56.6 |
| 2'F-ANA at 1 4 6 7 9 10 11 13 14 15 | 46.5 |
| 2'F-ANA at 1 2 3 6 7 12 14 | 82.2 |
| 2'F-ANA at 1 2 6 7 8 12 13 | 317 |
| 2'F-ANA at 1 2 4 8 9 11 13 14 | 49.9 |
| 2'F-ANA at 2 3 6 7 8 10 11 12 14 15 | 246 |
| 2'F-ANA at 1 5 7 11 12 | 90.7 |
| 2'F-ANA at 2 4 10 12 14 | 65.3 |
| 2'F-ANA at 3 4 5 6 7 8 9 10 11 12 14 15 | 50.1 |

Set 3
Target: ABI1, truncated, D143A, DHFR fusion (Arabidopsis thaliana)
Technique: DHFR PCA, deep sequencing
Medium: yeast
Setting: methotrexate growth selection, single substitutions
With: (+)-ABA 710 µM
Relative to: wild-type fitted maximum
Reading: higher = stronger binding
Starting sequence: PYL1, truncated, DHFR fusion (Arabidopsis thaliana); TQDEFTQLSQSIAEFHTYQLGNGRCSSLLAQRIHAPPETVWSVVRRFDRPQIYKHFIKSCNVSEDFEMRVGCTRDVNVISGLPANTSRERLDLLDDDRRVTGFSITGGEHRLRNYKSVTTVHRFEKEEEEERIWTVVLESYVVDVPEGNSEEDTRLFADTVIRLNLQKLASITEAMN
| Variant | relative binding score |
| --- | --- |
| R88T | 111% |
| N165D | 58.4% |
| I172Q | 89.3% |
| N22Q | 104% |
| Q10K | 109% |
| E151P | 98.9% |
| D75I | 105% |
| E4D | 102% |
| S117R | 1.54% |
| L112C | 89.8% |
| D97L | 106% |
| N77S | 105% |
| R90I | 94.6% |
| I57S | 40.4% |
| P50D | 2.29% |
| R99P | 21.1% |
| G23T | 97% |
| N77P | 29.5% |
| N77Q | 101% |

Set 4
Target: RING finger protein unkempt homolog, zinc fingers 1-6, GST-SBP tag (UNK, Homo sapiens, UniProt Q9C0B0, residues 30-357)
Sequence of UniProt Q9C0B0 (30-357, looked up): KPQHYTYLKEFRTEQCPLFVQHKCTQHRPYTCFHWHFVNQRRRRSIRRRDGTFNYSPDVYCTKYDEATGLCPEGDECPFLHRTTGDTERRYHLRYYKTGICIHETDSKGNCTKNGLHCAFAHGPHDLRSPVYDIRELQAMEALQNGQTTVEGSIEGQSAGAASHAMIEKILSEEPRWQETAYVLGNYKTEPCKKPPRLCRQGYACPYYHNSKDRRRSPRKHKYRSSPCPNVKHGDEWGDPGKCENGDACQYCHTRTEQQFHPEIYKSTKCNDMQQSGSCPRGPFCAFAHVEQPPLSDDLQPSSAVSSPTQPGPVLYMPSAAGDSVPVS
Technique: RNA Bind-n-Seq
Form: RNA
Medium: in vitro
Tested at: not given
Setting: RNA with constant flanks, human and mouse sites, ends assumed
Relative to: input RNA pool
Reading: higher = stronger binding
Constant ends, left off below: GGGAGUUCUACAGUCCGACGAUC … CAACAGAGGAUUGAGCAUCA
| Oligonucleotide | bound/input enrichment [ratio] |
| --- | --- |
| CCCCACAUACCAUCUGUAGAGUUGGAACUGCAUUCUUUUAAAGUUUUAUAUGCAUAUAUUUUAGGGCUGUAGACUUACUUUCCUAUUUUCUUUUCCAUUGCUUAUUCUUGAGCACAAAAU | 0.786 |
| UUAUCUUGAAAAAGCAUCACAGAAGUAGAAAAAAAUGUCGAAAGCAUUAUAACUGUAACGUUCUUUGAGUUUGUGAUUGAUCCACAUUUUUCCCCCUGCAUUAUGGAAAAUGUCUCUCAG | 0.215 |
| CGGUGCAACUUCCGGUCUGCCUACAAGAUGUCUGCGGCCAGUGGUGGCUUCCAACCUCGUGAGCGGCGAUUUUCAGUGCAGGAGCAGGACUGGGAGACUACGCCGCCUAAGAAGCUCCGG | 0.074 |
| UUUCUCCGUUGCAUCUGGUCAUCUCUACGAAAGAUUUCUUCGCAUAAUGAUGCUAUCCGUGCUGAAGAAUACCAAGACUCCUGUGAAAUUCUGGUUCUUGAAGAAUUACUUGUCCCCCAC | 0.267 |
| GUUCCUGAAGCCGGGUUUCAGGCAACUGGGAUGGCGAGUCCGCGAGUGUUCCCACUUUCCUGUGUGGUGCAGCAGUAUGCCUGGGGGAAGGUGGGCUCCAAAAGUGAAGUGGCAUGCCUG | 0.139 |
| AGUACACCUUAUCAAACCAACAACAGAGAUGCCUCCAUUGAAUCAUCAAACAGACACAAAACUGAGAAUGCCAGGGAACCAUGCAAGUAUAAGGACUGUGUGAAUGGCUUAAAUUUGUAU | 0.231 |

Set 5
Target: Interferon regulatory factor 5, full length, phosphomimetic (IRF5, Homo sapiens, UniProt Q13568-2, residues 1-514, S451D/S453D/S456D/S462D)
Technique: protein-binding microarray
Form: double-stranded DNA, one strand shown
Medium: in vitro
Tested at: 940 nM top
Setting: 60-bp whole probe
With: salmon DNA 0.4 mg/ml
Relative to: random background probes
Reading: higher = stronger binding
Constant ends, left off below: GCCTAGCAC … GTCTTGATTCGCTTGACGCTGCTG
| Oligonucleotide | fitted relative affinity [z-score] |
| --- | --- |
| GACGGACTGGACTAGCGGGACGTGCTA | -0.558 |
| GACGATATCGGTATCGGGACGTGCTAG | 2.33 |
| AACGGTTTCGGGTTTCGGGACGTGCTA | 9.03 |
| AAATTCTGATATAATTCAAAGTGCTAG | 0.247 |
| TTAGATATCGGGCTTCGATTAGTGCTA | -0.118 |
| GACGGTTTCGGATTGGGGACGTGCTAG | 7.14 |
| GACGTTTTCGGGTATCGGGACGTGCTA | 1.95 |
| GACGGTCTTGGTATCGGGACGTGCTAG | 2.39 |
| ATTTAAAACAACTTTCAAAGGGTGCTA | 0.107 |
| GACGGACTGAGTCTCGGGACGTGCTAG | 0.806 |
| GACGATTTCACTATCGAGACGTGCTAG | 1.03 |
| TTAAATTTTAATAACACAGAGTGCTAG | -0.23 |
| TTAGAACTGAGTCTCGAGTAGTGCTAG | 0.659 |
| TTAGGTATCGGTTTCGGATAGTGCTAG | 10.9 |
| ATAGATATCGGGTATCGATTAGTGCTA | 2.77 |
| GACGGACTGGACGCTGGGGACGTGCTA | -0.69 |
| TCAAAGATCATTCTCACACTGTGCTAG | 0.456 |

Set 6
Target: Phosphate system positive regulatory protein PHO4, full length, GST-tagged (PHO4, Saccharomyces cerevisiae, UniProt P07270, residues 1-312)
Technique: competition protein-binding microarray
Form: double-stranded DNA, one strand shown
Medium: in vitro
Tested at: 2 µM
Setting: whole 60-bp probe, lowest competitor level
With: Cbf1 competitor, 0.05 µM
Reading: higher = stronger binding
Constant ends, left off below: … GTCTTGATTCGCTTGACGCTGCTG
Target sequence (chain): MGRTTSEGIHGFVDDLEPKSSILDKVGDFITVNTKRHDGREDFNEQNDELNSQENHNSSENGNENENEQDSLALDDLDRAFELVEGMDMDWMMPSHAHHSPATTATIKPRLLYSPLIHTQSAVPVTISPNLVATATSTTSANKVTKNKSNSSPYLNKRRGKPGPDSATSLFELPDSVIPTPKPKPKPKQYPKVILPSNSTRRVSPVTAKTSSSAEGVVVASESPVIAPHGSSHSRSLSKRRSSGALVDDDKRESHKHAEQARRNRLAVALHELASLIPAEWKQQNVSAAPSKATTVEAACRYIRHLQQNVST
| Oligonucleotide | fluorescence intensity [a.u.] |
| --- | --- |
| TCGCTCTTTTCACTGCTCGTGCCGATGCAACGCTCC | 9600 |
| TCTCTTCTTGGTACCGGCGTGATGGATTTGAAGCTA | 5120 |
| CGGGGTTAAGTTTTTCACGTGTAATGCTTGCAGCAG | 11400 |
| GACGAAACCTCTTCACGTGTGCAGGACTTGAAAATC | 13300 |
| TTAATGAGTAATCCGCACGTTTTTAATCTAGCTAAT | 13900 |
| CGCTACCAGAAACGATGCGTGCAAAGACCAGTGTTT | 8480 |
| CTTCTGTAAATTTGCTCTGTGGGTGGACGCGCCCCG | 3880 |
| CTTCTCGCGGTGGTGCCCGTGGTGATTCCAGAGGCG | 8520 |
| CGACACCGATAGCGTCATGTGTAGCAACCCAAATAA | 6100 |
| CAGGACTCCATCCATTACATGACAAGGGAAGCGCCC | 3360 |
| AAATTACTAAGTTGTAACGTGGGTGACGCCGTATGA | 10500 |
| AAATTACTAAGTTTTCACGTGCCGTACCCCGTATGA | 14900 |
| CTTCTGTAAATTTGCGTCGTGGGTGGACGCGCCCCG | 7430 |
| CTTCTGTAAATTTGTCACCGGACTTGACGCGCCCCG | 3430 |
| CTTTCCCGATCTTGATCGGTGGGTGTAGCACATTTG | 3700 |
| TTAGCTAATTTATCCCTCGTGGAATCTTGGAAGGAA | 9370 |
| TTATTCAAATGAAATACAATTCTTTTCAAAGTTTGG | 2670 |
| CATACCCAACCTTGGTCAGTGGGTGAAGATATTTGT | 4230 |

Some of these lines once more (set 2):
| Modification | mean fluorescence intensity [a.u.] |
| --- | --- |
| 2'F-ANA at 1 2 3 4 5 11 13 14 | 46.5 |
| 2'F-ANA at 2 3 5 8 10 13 14 | 56.6 |
| 2'F-ANA at 1 4 6 7 9 10 11 13 14 15 | 46.5 |
| 2'F-ANA at 1 2 3 6 7 12 14 | 82.2 |
| 2'F-ANA at 1 2 6 7 8 12 13 | 317 |
| 2'F-ANA at 1 2 4 8 9 11 13 14 | 49.9 |
| 2'F-ANA at 2 3 6 7 8 10 11 12 14 15 | 246 |
